Literature values that unrelated publications cite.
Lines come from different studies, so protocols differ. Numbers after ± are the reported error.
Cell line: MCF7

Structure (SMILES) | assay | setting | IC50
C=C(C)[C@H]1CC[C@@]2(C)CC[C@]3(C)C[C@H]4[C@@H](C)C[C@@]5(O)OC(=O)/C(=C/C[C@H]3[C@H]12)[C@@H]45 | – | – | 14.5 µM
COc1ccc(/C=C/C(=O)OCc2cn(-c3ccccc3)nc2-c2ccc(F)cc2)cc1 | cell growth | – | 3.87 µM
COc1cc(Nc2nnc(-c3cc4ccccc4[nH]3)s2)cc(OC)c1OC | cytotoxicity | – | 0.91 µM
COC1C(C#N)=C(/N=C/c2cccc(Br)c2)Oc2nc(Nc3ccc(S(N)(=O)=O)cc3)sc21 (centres unmarked) | cell viability, MTT | – | 9.27 µM
COc1ccc(-c2ccc(NC(=O)Nc3ccc(Cl)c(C(F)(F)F)c3)c(C)n2)cc1 | – | 72 h | 0.11 µM
Oc1cccc(-c2cccc(O)n2)n1.[Cl-].[Cl-].[Ru+2].c1cnc2c(c1)ccc1cccnc12.c1cnc2c(c1)ccc1cccnc12 | cell viability | together with: blue light 450 nm, 1 h | 180 µM
C=CCSc1nnc(-c2cc3ccccc3[nH]2)n1/N=C/c1c[nH]c2ccccc12 | cytotoxicity | – | 1.18 µM
Cc1ccc(S(=O)(=O)Nc2ccc(-c3ccnc(Nc4ccc(S(=O)(=O)Nc5ncccn5)cc4)c3C#N)cc2)cc1 | cell proliferation | – | 18.3 µM
Cc1cc(C)cc(NC(=O)c2c(NC(=O)Nc3ccc(Cl)cc3)c(C#N)c3n2CCC3)c1 | cell growth | – | 1.12 ± 0.1 µM
CCCCSc1nnc(-c2ccc(N)cc2)o1 | cytotoxicity | – | 2.45 ± 1.03 µg/mL
Oc1cccc(-c2cccc(O)n2)n1.[Cl-].[Cl-].[Ru+2].c1cnc2c(c1)c1c(c3cccnc32)OCCO1.c1cnc2c(c1)c1c(c3cccnc32)OCCO1 | cell viability | together with: blue light 450 nm, 1 h | 4.1 µM
Cc1ccc2nc(SCc3cn(-c4cccc(C(=O)O)c4)nn3)n(Cc3ccccc3)c(=O)c2c1 | – | – | 4.04 µM
Cn1c(/C=C2\SC(=O)N(CCc3noc(-c4cc(C#N)cc(C#N)c4)n3)C2=O)nc2ccccc21 | cell growth | – | 1.32 ± 0.05 µM
CN(C)c1ccc(C2CC(c3c(O)c4ccccc4oc3=O)=NN2c2nc(-c3ccccc3)c(/N=N/c3ccc(Cl)cc3)s2)cc1 (centres unmarked) | cell growth | – | 5.41 µM
Cc1ccc(-n2cc(CN3CCN(C(=O)c4nc5ccccc5n4C)CC3)nn2)cc1 | cell growth | – | 3.03 µM
COc1ccc(NC(=O)Nc2ccc(-c3ccc(OC)c(OC)c3)nc2C)cc1 | – | 48 h | 1.88 µM
O=C(c1ccc(Br)cc1)[C@H]1[C@H](c2cn(-c3ccccc3)nc2-c2ccccc2)C2CC3CCCCC3N2[C@]12C(=O)Nc1ccc(Cl)cc12 (some centres unmarked) | cell growth | – | 0.189 ± 0.01 µM

For quick reference, copied from above:
Structure (SMILES) | assay | setting | IC50
C=CCSc1nnc(-c2cc3ccccc3[nH]2)n1/N=C/c1c[nH]c2ccccc12 | cytotoxicity | – | 1.18 µM
CCCCSc1nnc(-c2ccc(N)cc2)o1 | cytotoxicity | – | 2.45 ± 1.03 µg/mL
